Published values of several laboratories.
A part holds a random share of what one study measured. Positions count from the first letter of the parent shown.

Block 1 — method: protein binding microarray; molecule type: double-stranded DNA, one strand shown; matrix: in vitro; concentration: not given; relative to: not given; direction: higher = stronger binding
Target: Histone acetyltransferase KAT6A, winged helix 1, GST fusion (KAT6A, Homo sapiens, UniProt Q92794, residues 1-85)
Setting: 8-mer, flanks averaged, mean of 2 arrays, mostly near background
Construct (chain): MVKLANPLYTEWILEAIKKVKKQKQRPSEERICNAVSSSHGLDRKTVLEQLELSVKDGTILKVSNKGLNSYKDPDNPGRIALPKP
Sequence | E-score
CCGCAGAC | 0.243
AGTACGAC | -0.029
AATGAACA | -0.215
AAACACGG | 0.257
GAGTGTGA | -0.292
ACACGGAG | 0.241
AACATTGA | -0.122
CGCTAGAA | 0.0601
AATTTTAG | -0.221
ACGGACAG | 0.123
ATAGCACG | 0.145
ACTCCAAC | -0.111
TCTACCCA | -0.0271
GTATCAAA | -0.14
ACATCCAA | -0.142
AACTCAAG | -0.184

Block 2 — target: CCNB2, cyclin fold, Cln2 fusion (human); method: yeast growth competition, sequencing; matrix: yeast; setting: weak parent motif; relative to: not given; direction: higher = stronger binding
Parent: SAMHD1 docking peptide (human); ASKSRVQLFKDDP
Variant | normalised enrichment score
V6Y | -0.0571
K3D | -0.498
D11K | 0.495
V6W | -0.24
K3G | 0.0129
S2H | 0.489
Q7A | -0.104
D11V | 0.278
V6E | 0.401
K10D | 0.0162
F9E | 0.0202
S4I | 1.19
F9A | 0.0693

Block 3 — method: protein-binding microarray; molecule type: double-stranded DNA, one strand shown; matrix: in vitro; concentration: 250 nM; setting: 60-bp whole probe; with: salmon DNA 0.4 mg/ml; relative to: random background probes; direction: higher = stronger binding; shared flanks, not repeated: GCCTAGCAC … GTCTTGATTCGCTTGACGCTGCTG
Target: Interferon regulatory factor 5, full length, phosphomimetic (IRF5, Homo sapiens, UniProt Q13568-2, residues 1-514, K96S/S451D/S453D/S456D/S462D)
Sequence | log fluorescence
GACGAACTGGGTTATCGAGACGTGCTA | 0.132 z-score
TCATTTTTGGAATGTCTTACTGTGCTA | 0.881 z-score
ATTGTTTCCTTCCTCTTTTAGTGCTAG | 1.82 z-score
TTAGGTCTCGGGTTCGGTTAGTGCTAG | 0.139 z-score
TTTGTAATCGAAATCTTCATGTGCTAG | 1.78 z-score
TTGCCAATGCTTCTGGTCTTGTGCTAG | -0.0287 z-score
TTAGGTTTCCTTTTCCTTTAGTGCTAG | 1.82 z-score
AACGGTTTCCTTCTCCTGACGTGCTAG | 1.19 z-score
TCATATTTTAATCACATACTGTGCTAG | 1.07 z-score
CTGGCTATTTTATATGCTATGGTGCTA | -0.188 z-score
TTAGATTTCGGGTATCGATTTGTGCTA | 7.44 z-score
TCATCTCTGCTCCTTCTGACTGTGCTA | 0.514 z-score
TCAATTATTTATTGTAGCACTGTGCTA | 0.822 z-score
TTAGGACTGCTTTTCCTTGAGTGCTAG | -0.0725 z-score
TTAGGTATGCTTCTCCTTTAGTGCTAG | -0.224 z-score
TCATATCTGGGTTCCCCACTGTGCTAG | 0.363 z-score

Single results of other studies
Molecule | target | assay | test system | conditions | scale | measurement | value
PhoQ, residues 284 288 289 292 302 303 TYGVAM | PhoP, residues 12 14 15 18 19 QQAYL (Escherichia coli, UniProt P23836) | Sort-seq, measured: YFP reporter | E. coli | PhoQ-PhoP variant library, with: 10 µM Mg2+ | relative to: high Mg2+ state, higher = stronger signaling | fold induction | 7.89

A few entries again (block 1):
Sequence | E-score
ACATCCAA | -0.142
ACGGACAG | 0.123
CGCTAGAA | 0.0601
AATGAACA | -0.215
AGTACGAC | -0.029
ACACGGAG | 0.241
ACTCCAAC | -0.111
